Published values gathered from unrelated publications.
Parts stem from different laboratories: compare values within a part only. Substitutions count along the parent as printed.
UniProt P35626, sequence (whole entry, looked up): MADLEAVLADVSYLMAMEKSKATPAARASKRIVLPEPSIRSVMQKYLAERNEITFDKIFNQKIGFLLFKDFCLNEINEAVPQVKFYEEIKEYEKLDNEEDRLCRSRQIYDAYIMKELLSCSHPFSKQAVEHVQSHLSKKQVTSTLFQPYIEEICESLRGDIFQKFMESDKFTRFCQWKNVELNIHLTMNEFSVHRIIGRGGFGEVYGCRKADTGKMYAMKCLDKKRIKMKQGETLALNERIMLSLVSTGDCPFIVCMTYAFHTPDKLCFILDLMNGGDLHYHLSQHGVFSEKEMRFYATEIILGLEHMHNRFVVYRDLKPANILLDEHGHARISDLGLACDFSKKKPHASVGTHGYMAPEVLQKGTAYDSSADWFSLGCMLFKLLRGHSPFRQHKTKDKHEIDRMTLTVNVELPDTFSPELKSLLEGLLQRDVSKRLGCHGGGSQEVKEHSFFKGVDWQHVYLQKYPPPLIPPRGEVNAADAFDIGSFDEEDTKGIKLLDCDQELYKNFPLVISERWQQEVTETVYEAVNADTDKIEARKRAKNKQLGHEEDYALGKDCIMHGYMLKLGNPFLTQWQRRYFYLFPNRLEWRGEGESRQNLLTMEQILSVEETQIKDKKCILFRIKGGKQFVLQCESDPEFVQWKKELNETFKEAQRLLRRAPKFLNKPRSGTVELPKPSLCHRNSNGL

Set 1
Target: Sal-like protein 4, full length isoform A (SALL4, Homo sapiens, UniProt Q9UJQ4, residues 1-1053)
UniProt Q9UJQ4, sequence (whole entry, looked up): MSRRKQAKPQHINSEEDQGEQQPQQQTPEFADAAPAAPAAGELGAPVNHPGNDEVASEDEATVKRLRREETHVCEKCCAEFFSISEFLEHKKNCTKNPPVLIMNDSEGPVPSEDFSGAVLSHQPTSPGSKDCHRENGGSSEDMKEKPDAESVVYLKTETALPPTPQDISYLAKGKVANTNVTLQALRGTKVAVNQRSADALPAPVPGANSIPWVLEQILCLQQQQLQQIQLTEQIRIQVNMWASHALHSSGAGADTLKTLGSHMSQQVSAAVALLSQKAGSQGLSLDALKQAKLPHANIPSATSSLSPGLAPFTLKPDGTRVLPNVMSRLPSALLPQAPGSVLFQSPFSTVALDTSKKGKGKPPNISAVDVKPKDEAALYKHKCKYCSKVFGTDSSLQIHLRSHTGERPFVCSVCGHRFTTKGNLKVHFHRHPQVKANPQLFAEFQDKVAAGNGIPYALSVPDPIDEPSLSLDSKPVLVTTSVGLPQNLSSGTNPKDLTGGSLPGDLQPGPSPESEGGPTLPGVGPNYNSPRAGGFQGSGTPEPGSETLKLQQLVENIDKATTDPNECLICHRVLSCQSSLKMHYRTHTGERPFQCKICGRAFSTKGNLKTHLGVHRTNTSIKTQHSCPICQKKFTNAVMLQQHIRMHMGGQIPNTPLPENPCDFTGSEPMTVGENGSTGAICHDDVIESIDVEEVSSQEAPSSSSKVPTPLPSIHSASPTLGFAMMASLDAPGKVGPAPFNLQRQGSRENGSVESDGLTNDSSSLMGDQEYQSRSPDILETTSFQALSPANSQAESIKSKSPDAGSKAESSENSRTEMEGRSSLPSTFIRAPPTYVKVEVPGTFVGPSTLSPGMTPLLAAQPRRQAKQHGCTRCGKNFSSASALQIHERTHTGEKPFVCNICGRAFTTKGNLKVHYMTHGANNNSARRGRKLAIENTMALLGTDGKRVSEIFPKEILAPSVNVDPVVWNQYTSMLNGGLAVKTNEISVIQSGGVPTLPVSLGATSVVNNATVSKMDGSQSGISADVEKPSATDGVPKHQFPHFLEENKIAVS
Method: universal PBM
Molecule type: double-stranded DNA, one strand shown
Sample: in vitro
Tested at: 600 nM
Notes: 8-mer, flanks averaged, mean of replicates
Reading: higher = stronger binding
Strand	E-score
GAGGTCAA	-0.0715
TCAACGAA	0.121
ACAATGAC	-0.0663
ACTGACGA	-0.00061
ATAAAAGG	0.27
GTGGCCTA	-0.179
CCCAATCA	-0.0202
ATGTCGGC	-0.156

Set 2
Target: ABI1, truncated, D143A, DHFR fusion (Arabidopsis thaliana)
Method: DHFR PCA, deep sequencing
Sample: yeast
Notes: methotrexate growth selection, single substitutions
Added: (+)-ABA 17 µM
Reference: wild-type fitted maximum
Reading: higher = stronger binding
Parent: PYL1, truncated, DHFR fusion (Arabidopsis thaliana); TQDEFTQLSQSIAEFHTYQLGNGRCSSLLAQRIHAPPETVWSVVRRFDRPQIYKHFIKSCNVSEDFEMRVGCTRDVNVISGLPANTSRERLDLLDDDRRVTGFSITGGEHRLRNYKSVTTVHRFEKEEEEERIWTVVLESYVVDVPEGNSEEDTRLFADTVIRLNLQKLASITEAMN; partner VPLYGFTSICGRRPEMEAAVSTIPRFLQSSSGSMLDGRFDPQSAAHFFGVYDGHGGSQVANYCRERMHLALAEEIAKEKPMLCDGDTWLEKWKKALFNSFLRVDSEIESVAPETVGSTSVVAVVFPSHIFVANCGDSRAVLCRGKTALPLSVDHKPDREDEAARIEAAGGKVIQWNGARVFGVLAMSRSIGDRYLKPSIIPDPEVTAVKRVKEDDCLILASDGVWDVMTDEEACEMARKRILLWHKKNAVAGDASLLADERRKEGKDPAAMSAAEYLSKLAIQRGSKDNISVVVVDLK
Change	relative binding score [%]
E38P	40.2
Q19H	72.4
V118W	-12.3
R98G	39.2
S140V	0.422
E174Y	35.6
E14K	71
L138G	2.02

Set 3
Target: Prothrombin, mature alpha-thrombin (F2, Homo sapiens, UniProt P00734)
Method: aptamer microarray, sandwich
Molecule type: DNA with 2'F-ANA
Sample: in vitro
Tested at: 200 nM
Notes: whole 15-mer aptamer, many near background
Added: Cy3 exosite-II aptamer, 400 nM
Reading: higher = stronger binding
Strand: GGTTGGTGTGGTTGG
Modification	mean fluorescence intensity
2'F-ANA at 1 2 6 8 9 10 11 15	56.5 a.u.
2'F-ANA at 1 2 4 5 7 8 9 11 12 13	66.3 a.u.
2'F-ANA at 1 3 5 6 9 11 12 14 15	48.6 a.u.
2'F-ANA at 1 2 7 8 10 11 12 15	81.5 a.u.
2'F-ANA at 1 2 3 4 5 6 8 10 11 14 15	53.9 a.u.
2'F-ANA at 2 4 8 13 15	335 a.u.
2'F-ANA at 4 6 7 11 12	383 a.u.
2'F-ANA at 1 2 3 4 6 8 9 10 11 13	54.1 a.u.

Single results of other studies
SMILES	target	effect on	mode	tested at	reference	measurement	result
CC(=O)O/N=C1/C(c2c(O)[nH]c3cc(Br)ccc23)=Nc2ccccc21	G protein-coupled receptor kinase 3 (GRK3, Homo sapiens, UniProt P35626)	enzyme activity	inhibitor	0.5 µM	control	remaining activity	95.7%

For quick reference, copied from above (set 1):
Strand	E-score
GAGGTCAA	-0.0715
TCAACGAA	0.121
ACAATGAC	-0.0663
ACTGACGA	-0.00061
